{"sequences": {"note": "Amino acid sequences for entries named in this document (tags omitted).", "UniProt P11245, whole entry": "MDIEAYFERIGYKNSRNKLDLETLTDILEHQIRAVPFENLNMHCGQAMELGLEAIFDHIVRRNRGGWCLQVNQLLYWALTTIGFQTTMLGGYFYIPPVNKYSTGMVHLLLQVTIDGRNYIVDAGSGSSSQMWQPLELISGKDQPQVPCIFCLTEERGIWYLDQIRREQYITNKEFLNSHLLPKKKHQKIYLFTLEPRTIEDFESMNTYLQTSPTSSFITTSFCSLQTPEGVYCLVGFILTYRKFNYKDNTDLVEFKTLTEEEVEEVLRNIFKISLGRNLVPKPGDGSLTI", "UniProt Q16539, whole entry": "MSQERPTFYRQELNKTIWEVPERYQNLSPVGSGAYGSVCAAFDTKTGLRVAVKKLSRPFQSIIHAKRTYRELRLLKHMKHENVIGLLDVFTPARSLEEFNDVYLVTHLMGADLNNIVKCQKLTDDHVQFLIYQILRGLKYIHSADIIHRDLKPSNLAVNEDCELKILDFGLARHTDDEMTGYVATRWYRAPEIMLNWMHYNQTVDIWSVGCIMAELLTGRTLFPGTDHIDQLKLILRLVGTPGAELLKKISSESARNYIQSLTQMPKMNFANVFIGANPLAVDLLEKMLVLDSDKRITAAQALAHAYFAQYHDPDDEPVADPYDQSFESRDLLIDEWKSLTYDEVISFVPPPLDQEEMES"}, "data": "Measurements from different studies", "note": "Protocols differ between the studies behind these lines. Several values in a cell are separate wells, animals, samples, runs or records. Numbers after ± are the reported error."}
{"SMILES": "CCOC(=O)Oc1ccc2c(c1OC(=O)OCC)C(=O)c1ccccc1C2=O", "target or system": "NAT2 (Homo sapiens, UniProt P11245)", "assay": "enzyme activity, inhibitor", "test system": "recombinant in yeast lysate", "conditions": "added: 10 µM 4-aminobiphenyl and 100 µM acetyl-CoA", "quantity": "IC50", "value": "41.3 ± 12.9 µM"}
{"SMILES": "CN(C)CCNC(=O)c1cccc2ccc(-c3ccc(-c4ccccc4)cc3)nc12", "target or system": "MDA-MB-468", "assay": "cytotoxicity, MTT", "conditions": "3 h exposure, 96 h total", "quantity": "IC50", "value": "5.1 ± 2.3 µM"}
{"SMILES": "CC/C=C\\C/C=C\\CCC/C=C/C=C/C=C\\CCCC(=O)O", "target or system": "HL-60", "assay": "flow cytometry", "conditions": "12.5 µM, 24 h", "quantity": "G2/M phase cells", "value": "8.9%"}
{"SMILES": "CCOC(=O)c1c(-c2ccc(Cl)cc2Cl)n(-c2nc(-c3ccc(Cl)cc3)c3c(NC(=O)c4ccccc4)nnc-3[nH]2)[nH]c1=O", "target or system": "COLO 205", "assay": "SRB", "conditions": "10 µM", "scale": "baseline: untreated", "quantity": "cell growth", "value": "-62.3%"}
{"SMILES": "NS(=O)(=O)c1nnc(NC(=O)CC2C3CC4CC(C3)CC2C4)s1 (stereo not shown)", "test system": "PBS", "conditions": "pH 7.4", "quantity": "kinetic solubility", "value": "57.3 µM"}
{"SMILES": "N#Cc1c(-c2ccc(Cl)cc2Cl)n(-c2nc(-c3ccc(Cl)cc3)c3c(NC(=O)c4ccccc4)nnc-3[nH]2)[nH]c1=O", "target or system": "SF-268", "assay": "SRB", "conditions": "10 µM", "quantity": "cell growth", "value": "38.7%"}
{"SMILES": "CC(C)CC(NC(=O)C(Cc1ccccc1)NC(=O)c1cnc(C(=O)NC(Cc2ccccc2)C(=O)NC(CC(C)C)B(O)O)cn1)B(O)O (stereo not shown)", "target or system": "RPMI-8226", "assay": "cell viability, CellTiter-Glo", "conditions": "48 h", "quantity": "IC50", "value": "0.0032 µM"}
{"SMILES": "Cc1c(Cn2c(C)nc3c(C(=O)O)cc(N4CCOCC4)cc32)cccc1C(F)(F)F", "target or system": "22Rv1", "assay": "cell growth, WST-8", "conditions": "3 days", "quantity": "EC50", "value": "12 µM"}
{"SMILES": "CN1C(=O)CCc2cc(CNC(C)(C)[C@@H](O)c3ccccc3)ccc21", "test system": "male CD-1 mouse, plasma", "conditions": "subcutaneous, 10 mg/kg", "quantity": "AUC(0-t)", "value": "13300 ng·min/mL/g"}
{"SMILES": "CN(C)CCNC(=O)c1cc([N+](=O)[O-])cc2ccc(-c3ccccc3)nc12", "target or system": "MDA-MB-468", "assay": "cytotoxicity, MTT", "conditions": "96 h", "quantity": "IC50", "value": "2.8 ± 1.1 µM"}
{"SMILES": "Cc1ccc(C#Cc2cccc(-c3nn(-c4nc(C(=O)O)cs4)c(CC4CC4)c3Cc3ccc(S(N)(=O)=O)c(F)c3)c2)s1", "target or system": "HEK293T", "assay": "lactate production", "conditions": "1 h", "quantity": "IC50", "value": "0.5 µM"}
{"SMILES": "CC(C)C[C@H](NC(=O)[C@H](C)NC(=O)[C@H](CCCNC(=N)N)NC(=O)[C@H](CCCNC(=N)N)NC(=O)[C@H](CCCNC(=N)N)NC(=O)[C@H](C)NC(=O)[C@H](CC(C)C)NC(=O)[C@H](CCCNC(=N)N)NC(=O)[C@H](CO)NC(=O)[C@H](CCCCN)NC(=O)[C@H](CO)NC(=O)Cn1cc(COC(=O)[C@]2(C)C=C(C(=O)OC(C)(C)C)C(=O)CC2)nn1)C(=O)O", "target or system": "MAPK14 (Homo sapiens, UniProt Q16539)", "assay": "enzyme activity, inhibitor, D-SENSOR kinase", "conditions": "0.2743 µM, unit not given", "scale": "baseline: untreated", "quantity": "remaining activity", "value": "0.599 and 0.606 and 0.581"}
{"SMILES": "C=C(C)C(=O)Nc1ccc(-c2c(-c3ccc(Oc4nccc(C)n4)c(F)c3)c3c(N)ncnc3n2C)cc1", "target or system": "EN", "assay": "cell growth, CellTiter-Glo", "conditions": "120 h", "quantity": "GR Hill coefficient", "value": 0.62}
